Experimental data gathered from unrelated publications.
Parts stem from different laboratories: compare values within a part only. Substitutions count along the parent as printed.

Set 1
Target: Prothrombin, mature alpha-thrombin (F2, Homo sapiens, UniProt P00734)
Method: aptamer microarray, sandwich
Form: DNA with 2'F-ANA
Matrix: in vitro
Tested at: 200 nM
Setting: whole 15-mer aptamer, many near background
Added: Cy3 exosite-II aptamer, 400 nM
Direction: higher = stronger binding
Quantity: mean fluorescence intensity
Strand: GGTTGGTGTGGTTGG
2'F-ANA at 5 6 8 15: 81.3 a.u.
2'F-ANA at 5 7 10 11 12 13 14 15: 61.5 a.u.
2'F-ANA at 4 9 12 13 14 15: 95.4 a.u.
2'F-ANA at 1 2 3 7 8 9 13 14 15: 72.3 a.u.
2'F-ANA at 1 3 4 8 9 10 11 13 14: 55.7 a.u.
2'F-ANA at 1 2 10 11 12 13: 62.4 a.u.
2'F-ANA at 4 6 7 13 14: 93.5 a.u.
2'F-ANA at 1 2 3 9 10 11 12 13 14 15: 53.7 a.u.
2'F-ANA at 2 3 4 5 9 12 14: 55.3 a.u.
2'F-ANA at 2 4 8 9 11 14: 79.8 a.u.
2'F-ANA at 1 3 5 7 9 10 12 14 15: 42.8 a.u.
2'F-ANA at 4 7 8 11 12 14 15: 143 a.u.
2'F-ANA at 3 4 6 9 10 11: 235 a.u.
2'F-ANA at 2 4 5 8 12 14 15: 46.7 a.u.
2'F-ANA at 6 7 9 11 12 13 14 15: 163 a.u.
2'F-ANA at 1 5 7 8 13 14 15: 53.6 a.u.
2'F-ANA at 2 5 7 8 9 11 12 13 15: 90.7 a.u.
2'F-ANA at 1 6 8 9 10 11 12: 61.3 a.u.
2'F-ANA at 2 4 6 7 9 11: 205 a.u.
2'F-ANA at 1 6 7 8 11: 161 a.u.
2'F-ANA at 2 4 8 9 10: 95.4 a.u.
2'F-ANA at 1 2 3 4 6 8 9 11 12 13 14 15: 64 a.u.
2'F-ANA at 1 2 3 5 6 8 10 11: 50.9 a.u.
2'F-ANA at 3 4 8 9 12 14 15: 377 a.u.
2'F-ANA at 1 2 3 4 5 12: 129 a.u.

Set 2
Target: Centromere-binding protein 1, full length, His-tagged (CBF1, Saccharomyces cerevisiae, UniProt P17106, residues 1-351)
UniProt P17106, sequence (whole entry, looked up): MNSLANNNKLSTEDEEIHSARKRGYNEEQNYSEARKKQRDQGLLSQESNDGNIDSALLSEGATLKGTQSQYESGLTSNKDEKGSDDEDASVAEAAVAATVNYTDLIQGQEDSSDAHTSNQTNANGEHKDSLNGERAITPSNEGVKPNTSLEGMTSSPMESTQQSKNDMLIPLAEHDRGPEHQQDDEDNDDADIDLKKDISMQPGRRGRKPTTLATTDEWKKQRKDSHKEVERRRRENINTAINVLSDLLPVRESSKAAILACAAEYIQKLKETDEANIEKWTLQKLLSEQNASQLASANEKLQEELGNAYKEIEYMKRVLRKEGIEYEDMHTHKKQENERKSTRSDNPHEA
Method: competition protein-binding microarray
Form: double-stranded DNA, one strand shown
Matrix: in vitro
Tested at: 2 µM
Setting: whole 60-bp probe, lowest competitor level
Added: Pho4 competitor, 0.05 µM
Direction: higher = stronger binding
Quantity: fluorescence intensity
All sequences stand within: … GTCTTGATTCGCTTGACGCTGCTG
AAAGCGGTAATTTGTCAAGTGGGTGCAGATATCTAT: 94.6 a.u.
TTGATCTTGCCAAGTCTCGTGGTGAACTATCCATTT: 158 a.u.
CAATAGGGGAAAGCATTCGTGATGGAGACGTATATA: 87.2 a.u.
AAGAACATTCTTTCTGTCGTGATGGTGTACTGGTGT: 83.7 a.u.
CGGGGTTAAGTTTGGCACGTGGGTGGCTTGCAGCAG: 978 a.u.
CTAACGAAGGTTTTTCACGTGTCGTACAAGCCAAGT: 803 a.u.
CATGAAACTCGCTGTCAGCTGAAATTTCACCTCAGT: 90.5 a.u.
CGAAATAAAAGCCATCACGTGGAGTGTAGCACCGCC: 1980 a.u.
CGGGGTTAAGTTTTTCACGTGTGCTGCTTGCAGCAG: 517 a.u.
ACTTGTCCAGAAAGGAACGTGACTCGCAATTGGAAG: 1210 a.u.
TGACTCACCCCCGGCCACGTGGCCGGTAGGAGGCCC: 745 a.u.

Set 3
Target: Histone acetyltransferase KAT6A, winged helix 2, GST fusion (KAT6A, Homo sapiens, UniProt Q92794, residues 85-181)
Method: protein binding microarray
Form: double-stranded DNA, one strand shown
Matrix: in vitro
Tested at: not given
Setting: 8-mer, flanks averaged, mean of 2 arrays, mostly near background
Reference: not given
Direction: higher = stronger binding
Quantity: E-score
Construct (chain): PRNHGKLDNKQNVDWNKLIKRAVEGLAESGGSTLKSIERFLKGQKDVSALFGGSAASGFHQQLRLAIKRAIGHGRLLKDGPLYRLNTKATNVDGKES
CAAAGCAG: 0.272
AATCTTAA: -0.0923
ACTCTATC: -0.0937
GAGTGGCA: -0.00613
CGCGCATC: 0.113
AGGTACGG: -0.123
AACAGGCT: -0.0976
ACCATCTA: -0.0882
ACGGTATG: -0.0646
ACGGCGCC: 0.192
CCATGGCA: -0.0148
AACGGGCG: 0.1
TCAAATAA: 0.0176
GTCTTTCA: 0.0457
ATGGTCCC: -0.141
CTAAGCGA: -0.0776

Set 4
Target: RNA binding protein fox-1 homolog 2, RRM domain, GST-SBP tag (RBFOX2, Homo sapiens, UniProt O43251-10, residues 100-194)
Method: RNA Bind-n-Seq
Form: RNA
Matrix: in vitro
Tested at: 365 nM
Setting: natural RNA segment, single round, ends assumed
Reference: no-protein control
Direction: higher = stronger binding
Quantity: RBNS enrichment (R)
All sequences stand within: GGGAGUUCUACAGUCCGACGAUC … UGGAAUUCUCGGGUGCCAA
Construct (chain): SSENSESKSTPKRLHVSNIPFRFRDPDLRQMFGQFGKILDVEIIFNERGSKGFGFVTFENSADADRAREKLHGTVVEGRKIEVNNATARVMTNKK
AUGUUGCCGAAAUAAGCAACUCUUAGGUUUGCCUGACUGCCUUAUGCUGGUAAAGAAAAGGGAUUCAACUGUCUCUUUUCCAAAUAAAAAAAAAGUCAAAAUUUCAAGUG: 0.305
CCUCCUUAGCUCUCCUUGUCUUUGCUGUUGGUUGGUUAUUUCCUGCUUUGUGUCUGUUCUGAGCUGUGAGAUUCCACUGUGAAAUAUAUGAAUAAAGUAUAUAAUUCUUU: 1.57
CACAGGGCUUUCUUCACUCUUGGUCUUCGUUUCUGAUCAAGUAAACACCAGCAGUUGUCAUUCAGUGCAGGUUUUUGUACUUCUAUAUGGUGAUUUUUUUACUUAAAAGC: 0.413
CUCCUGCCGCUGCGAGGCUGAACUCUUUGGUCCUGCCUCCCGUUCUCAAUACACUCUGUCUCAAAUCGUCUUGCUUCUUUCUUCUGCGCUGUUGCUGCCACGGGCUGGGG: 0.763
CCUCAGUCUUCUUGUAUAAUGCCUUUCCAUGGAUUGGCAUCCUGCCUUUUGGAAAACAUCAACAGCUGUUUAGAAAUGCAGCUGUAGUCUAUGAUUUUCUCUCCAGACUC: 0.335
UGUUUUUUAGGGGAAAGGGAUUCUAAGAAUGUCAUUUAAUGUACUUUGCAUCAUGUCUCUAGAAAUAUCUUUGUCCAUAGUGGUGGUGGAGUCUCUCUCUCUCUCUCUCU: 0.428
GAAGAGUGGUUGGUUGUAGAGCCCCCACCUUCAGAACUGCCUGGCCCAGCUGGAAACCCAGAGUCUGAGGGGGAAUCAGGUUCUGGAAGGCAAGCCAGAACUCCAGAGCU: 0.506

Set 5
Target: ABI1, truncated, D143A, DHFR fusion (Arabidopsis thaliana, UniProt P49597)
Method: DHFR PCA, dose-response
Matrix: yeast
Setting: Hill fit, mean, not affinity
Added: (+)-ABA, dose series
Direction: lower = more sensitive
Quantity: ABA EC50
Starting sequence: PYL1, truncated, DHFR fusion (Arabidopsis thaliana, UniProt Q8VZS8); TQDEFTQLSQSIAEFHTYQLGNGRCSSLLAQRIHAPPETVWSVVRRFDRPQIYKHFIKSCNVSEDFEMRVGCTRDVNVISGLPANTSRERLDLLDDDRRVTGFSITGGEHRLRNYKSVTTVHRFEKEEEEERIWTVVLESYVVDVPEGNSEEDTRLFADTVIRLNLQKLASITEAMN
S150T: 0.778 µM
A175T: 1.86 µM
C72K: 23.4 µM
R49E: 3.28 µM
M68H: 6.84 µM
V70Q: 10.4 µM
A13E: 3.2 µM
C25Q: 113 µM
E127L: 3.22 µM
I162K: 364 µM
E109S: 3.32 µM
S171N: 2.47 µM
E109M: 13.5 µM
D3T: 3.37 µM
R111K: 9.54 µM
L156W: 4.61 µM
N85G: 5.97 µM
R163A: 22.3 µM
S171K: 0.654 µM

Set 6
Target: Protein C-ets-1 (ETS1, Homo sapiens, UniProt P14921, residues 1-441, Y397A, full length assumed)
Method: protein-binding microarray
Form: double-stranded DNA, one strand shown
Matrix: in vitro
Tested at: not given
Setting: k-mer, scored over probes, only values ≥0.25
Direction: higher = stronger binding
Quantity: E-score
Residues (chain): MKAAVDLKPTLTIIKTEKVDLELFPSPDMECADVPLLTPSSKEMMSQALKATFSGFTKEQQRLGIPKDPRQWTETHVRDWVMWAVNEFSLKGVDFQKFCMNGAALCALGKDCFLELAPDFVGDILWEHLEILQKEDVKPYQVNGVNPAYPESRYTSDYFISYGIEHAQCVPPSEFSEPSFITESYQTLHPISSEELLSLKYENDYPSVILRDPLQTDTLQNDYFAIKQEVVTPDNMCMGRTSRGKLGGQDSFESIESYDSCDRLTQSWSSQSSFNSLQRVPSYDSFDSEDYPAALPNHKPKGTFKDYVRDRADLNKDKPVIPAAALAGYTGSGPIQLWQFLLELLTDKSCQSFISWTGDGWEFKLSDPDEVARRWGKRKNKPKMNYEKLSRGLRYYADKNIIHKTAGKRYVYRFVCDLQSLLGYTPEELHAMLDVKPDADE
ACTTACAA: 0.318
GCCGACAC: 0.253
TATCCGCA: 0.3
GGTGACAA: 0.301
TTCCGGAA: 0.485
ATCCGGAA: 0.267
CAACAAAC: 0.252
GGTTTGCA: 0.294
TTCCGCAA: 0.276
CACATCCG: 0.455
AGGGCGGG: 0.346
ACCCCGCC: 0.407
GCACCCAC: 0.265
AGGGGCGG: 0.413
GCATTTCC: 0.314

Set 7
Target: Interferon regulatory factor 5, full length, phosphomimetic (IRF5, Homo sapiens, UniProt Q13568-2, residues 1-514, S451D/S453D/S456D/S462D)
Method: protein-binding microarray
Form: double-stranded DNA, one strand shown
Matrix: in vitro
Tested at: 940 nM top
Setting: 60-bp whole probe
Added: salmon DNA 0.4 mg/ml
Reference: random background probes
Direction: higher = stronger binding
Quantity: fitted relative affinity
All sequences stand within: GCCTAGCAC … GTCTTGATTCGCTTGACGCTGCTG
TACCCTTTGAAAGTTGTTTTAGTGCTA: -0.0291 z-score
GATGAAGATGTAGAACTTTTGTGCTAG: -0.249 z-score
TCACCTTTTAAGTTCTCACTGTGCTAG: 1.16 z-score
ATTTTTTTCTAAGTAAACCCGTGCTAG: 0.541 z-score
TTAGGACTGCTACGGCTTTAGTGCTAG: -0.492 z-score
TCAGGTTTCCTTTCCCTTTAGTGCTAG: 1.92 z-score
GACGGACTGGGTCTCGGGTCGTGCTAG: 0.086 z-score
TTAGGACTGCTTTTCCTTCAGTGCTAG: -0.397 z-score
GCTCCTTCCCCTCTAGGTCTGTGCTAG: 0.383 z-score
TTAAGTATCGGGACTGGGTTAGTGCTA: 3.93 z-score
GACGATTTCAGTTTCGAGCCGTGCTAG: 3.84 z-score
GACGGTATCCTTTTCCTGACGTGCTAG: 0.769 z-score
TTAGGACTGGGGACTGTGTTAGTGCTA: -0.462 z-score
GCCGGACTGGGGTTTCGGGACGTGCTA: 1.94 z-score
TTAGGTCTCTGACTGGGTTAGTGCTAG: -0.156 z-score
TTAGGTATCGGTTTCGTTTAGTGCTAG: 11.6 z-score
TTAGGACTGGGAATGGGTTAGTGCTAG: -0.0416 z-score
GACGGTTTCTGTTCCGGGACGTGCTAG: 6.06 z-score

A few entries again (set 5):
A13E: 3.2 µM
C25Q: 113 µM
E127L: 3.22 µM
I162K: 364 µM
E109S: 3.32 µM
S171N: 2.47 µM
E109M: 13.5 µM
D3T: 3.37 µM
R111K: 9.54 µM
L156W: 4.61 µM
N85G: 5.97 µM
R163A: 22.3 µM
S171K: 0.654 µM
